{"data": "Published values from different studies", "note": "Numbered parts are unrelated; each lists some results of a single study. Substitutions count along the parent as printed."}
{"data": "Series 1", "target": "DBP, bZIP domain (human)", "method": "DHFR protein complementation", "sample": "yeast", "notes": "single substitutions, most at no-binding floor", "relative to": "wild-type JUN-FOS pair", "direction": "higher = stronger binding", "parent": "JUN, bZIP domain (human); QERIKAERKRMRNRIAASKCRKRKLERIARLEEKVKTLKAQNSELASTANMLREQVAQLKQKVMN; partner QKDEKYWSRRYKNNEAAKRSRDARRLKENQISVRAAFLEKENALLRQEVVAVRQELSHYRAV"}
{"Substitution": "R53M", "binding fitness": "-1.47 natural log"}
{"Substitution": "E54S", "binding fitness": "-1.46 natural log"}
{"Substitution": "S47M", "binding fitness": "-1.13 natural log"}
{"Substitution": "A46S", "binding fitness": "-1.42 natural log"}
{"Substitution": "E32V", "binding fitness": "-1.16 natural log"}
{"Substitution": "Q41E", "binding fitness": "-1.46 natural log"}
{"Substitution": "S43M", "binding fitness": "-1.49 natural log"}
{"Substitution": "I28H", "binding fitness": "-1.56 natural log"}
{"Substitution": "V35W", "binding fitness": "-1.51 natural log"}
{"Substitution": "Q41N", "binding fitness": "-1.52 natural log"}
{"data": "Series 2", "target": "ABI1, truncated, D143A, DHFR fusion (Arabidopsis thaliana)", "method": "DHFR PCA, deep sequencing", "sample": "yeast", "notes": "methotrexate growth selection, single substitutions", "added": "(+)-ABA 200 µM", "relative to": "wild-type fitted maximum", "direction": "higher = stronger binding", "parent": "PYL1, truncated, DHFR fusion (Arabidopsis thaliana); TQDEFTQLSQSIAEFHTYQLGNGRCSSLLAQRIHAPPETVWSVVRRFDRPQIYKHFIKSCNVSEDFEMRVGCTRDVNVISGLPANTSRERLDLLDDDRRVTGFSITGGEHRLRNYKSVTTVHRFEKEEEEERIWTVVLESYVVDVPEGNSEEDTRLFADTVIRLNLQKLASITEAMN; partner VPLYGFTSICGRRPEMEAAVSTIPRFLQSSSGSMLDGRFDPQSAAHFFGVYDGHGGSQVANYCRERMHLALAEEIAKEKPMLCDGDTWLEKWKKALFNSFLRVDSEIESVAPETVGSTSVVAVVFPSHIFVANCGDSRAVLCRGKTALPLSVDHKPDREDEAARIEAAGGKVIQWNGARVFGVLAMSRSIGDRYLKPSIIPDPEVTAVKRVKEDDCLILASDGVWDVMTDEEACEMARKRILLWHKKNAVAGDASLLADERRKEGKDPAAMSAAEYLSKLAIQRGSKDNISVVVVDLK"}
{"Substitution": "Y18M", "relative binding score": "84.5%"}
{"Substitution": "I172E", "relative binding score": "71.8%"}
{"Substitution": "A158L", "relative binding score": "101%"}
{"Substitution": "T39R", "relative binding score": "99.4%"}
{"Substitution": "E130A", "relative binding score": "105%"}
{"Substitution": "K168Q", "relative binding score": "97%"}
{"Substitution": "S87P", "relative binding score": "27%"}
{"Substitution": "S9A", "relative binding score": "99.8%"}
{"Substitution": "V136T", "relative binding score": "90.4%"}
{"Substitution": "P83Q", "relative binding score": "69%"}
{"Substitution": "D153R", "relative binding score": "2.87%"}
{"Substitution": "I33W", "relative binding score": "-1.37%"}
{"Substitution": "V145W", "relative binding score": "18.1%"}
{"Substitution": "I12F", "relative binding score": "64.5%"}
{"data": "Series 3", "target": "RING finger protein unkempt homolog, zinc fingers 1-6, GST-SBP tag (UNK, Homo sapiens, UniProt Q9C0B0, residues 30-357)", "method": "RNA Bind-n-Seq", "form": "RNA", "sample": "in vitro", "tested at": "not given", "notes": "RNA with constant flanks, human and mouse sites, ends assumed", "relative to": "input RNA pool", "direction": "higher = stronger binding", "all sequences stand within": "GGGAGUUCUACAGUCCGACGAUC … CAACAGAGGAUUGAGCAUCA", "chain of UniProt Q9C0B0 (30-357, looked up)": "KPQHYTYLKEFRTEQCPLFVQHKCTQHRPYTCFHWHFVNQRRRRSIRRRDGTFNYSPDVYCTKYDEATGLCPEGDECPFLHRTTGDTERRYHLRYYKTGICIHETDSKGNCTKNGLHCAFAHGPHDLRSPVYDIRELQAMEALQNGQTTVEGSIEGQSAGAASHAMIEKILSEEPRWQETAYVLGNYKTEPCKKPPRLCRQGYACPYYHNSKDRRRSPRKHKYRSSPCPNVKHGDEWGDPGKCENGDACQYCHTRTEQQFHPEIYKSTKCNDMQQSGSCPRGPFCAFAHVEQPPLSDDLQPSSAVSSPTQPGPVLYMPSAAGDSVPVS"}
{"Oligonucleotide": "AACCAUCCAGGCCAAAUCAGUGCUGGCUACGCUCCUGUUCUGGAUUGUCACACAGCCCACAUAGCAUGCAAGUUUGCUGAGCUUAAAGAAAAGAUCGAUCGUCGUUCUGGUAAGAAGCUG", "bound/input enrichment": "0.382 ratio"}
{"Oligonucleotide": "AAGGAAGCACGAAAGCGCCGGGAGGAGCGCCUCCAGGCCAAGAAGGAAGAGAUCAUCAAGACUCUGUCCAAGGAGGAGGAGACCAAGAAAUAAAGCUUCCCUCGUGUCUGUACAUAGCGG", "bound/input enrichment": "0.27 ratio"}
{"Oligonucleotide": "ACAAUUGGUUUUAAUGUGGAAACUGUGGAAUACAAAAAUCUAAAAUUCACCAUUUGGGAUGUGGGUGGAAAACACAAAUUAAGACCAUUGUGGAAACAUUAUUACCUCAAUACACAAGCU", "bound/input enrichment": "0.629 ratio"}
{"Oligonucleotide": "CUACCAACCAGACCAGGACUUAAUAAAGCACAACUUGUUGAGAUAGUUGGUUGCCACUUUAGGUCUAUUCCAGUGAAUGAAAAAGACACCUUAACAUAUUUCAUCUACUCAGUGAAGAAU", "bound/input enrichment": "0.19 ratio"}
{"Oligonucleotide": "AAUGUUUCAUCAUCAGGAACUUUCGGUUUUAAAAAAGAAACAUUACUUUUGUCUGCUAAAGUAAACCAUAUAUAGGGAAAUUAACACCUAGGAAAAGAAAACUGGCAAGAGAAUUGAUGA", "bound/input enrichment": "0.404 ratio"}
{"Oligonucleotide": "GGCUCCCCUUCUACUGAAUUAGUUUCUGGAGGAUCUGAUAAUCAAGUGAUUCACUGGGAAAUAGAGGAUAAUCAGCUUUUAAAAGCAGUGCAUCUUCAAGGCCAUGAAGGACCUGUUUAU", "bound/input enrichment": "0.181 ratio"}
{"Oligonucleotide": "AAAAUGUUUAUCGGUGGACUGAGCUGGCAGACCUCACCAGAUAGCCUUAGAGACUAUUUUAGCAAAUUUGGAGAAAUUAGAGAAUGUAUGGUCAUGAGAGAUCCCACUACGAAACGCUCC", "bound/input enrichment": "10.6 ratio"}
{"Oligonucleotide": "UUCUUAAAAAGACACAUGAAGAAUCAUCCUGAUCAUUUAAUGAGAAAAAAAUAUCAGUGUACAGAUUGUGACUUUACAACUAACAAGAAAGUGAGUUUCCAUAACCACUUAGAAAGCCAU", "bound/input enrichment": "0.281 ratio"}
{"Oligonucleotide": "AAAUUUAAGUUUUCUUGUAUUGAAAAUAACCUAUGAUUGUAUGUUUUGCAUUCCUAGAAGUAGGUUAACUGUGUUUUUAAAUUGUUAUAACUUCACACCUUUUUGAAAUCUGCCCUACAA", "bound/input enrichment": "0.705 ratio"}
{"Oligonucleotide": "UCUAUUCGAAACCCCAAAGCCCGAGCCGUAACGUUAAGGGUUAAACUUUCCAGUUUGAAUUUAGACAAUCAUGCCAAGAAAAAACUCAUUAAGCUUGUAGGAGAGCGGUACUGCAAGGCC", "bound/input enrichment": "0.535 ratio"}
{"data": "Other studies, line by line"}
{"Molecule": "PhoQ, residues 284 288 289 292 302 303 GLASVI", "target": "PhoP, residues 12 14 15 18 19 LHHSG (Escherichia coli, UniProt P23836)", "assay": "Sort-seq, refers to: YFP reporter", "system": "E. coli", "conditions": "PhoQ-PhoP variant library, added: 10 µM Mg2+", "how to read": "relative to: high Mg2+ state, higher = stronger signaling", "endpoint": "fold induction", "value": 6.93}
{"note": "A few entries again (series 2):"}
{"Substitution": "Y18M", "relative binding score": "84.5%"}
{"Substitution": "I172E", "relative binding score": "71.8%"}
{"Substitution": "A158L", "relative binding score": "101%"}
{"Substitution": "T39R", "relative binding score": "99.4%"}
{"Substitution": "E130A", "relative binding score": "105%"}
